Measured values of several laboratories.
Every numbered part comes from another study and shows a few of its results, in no order.
Chain of UniProt P20794 (whole entry, looked up): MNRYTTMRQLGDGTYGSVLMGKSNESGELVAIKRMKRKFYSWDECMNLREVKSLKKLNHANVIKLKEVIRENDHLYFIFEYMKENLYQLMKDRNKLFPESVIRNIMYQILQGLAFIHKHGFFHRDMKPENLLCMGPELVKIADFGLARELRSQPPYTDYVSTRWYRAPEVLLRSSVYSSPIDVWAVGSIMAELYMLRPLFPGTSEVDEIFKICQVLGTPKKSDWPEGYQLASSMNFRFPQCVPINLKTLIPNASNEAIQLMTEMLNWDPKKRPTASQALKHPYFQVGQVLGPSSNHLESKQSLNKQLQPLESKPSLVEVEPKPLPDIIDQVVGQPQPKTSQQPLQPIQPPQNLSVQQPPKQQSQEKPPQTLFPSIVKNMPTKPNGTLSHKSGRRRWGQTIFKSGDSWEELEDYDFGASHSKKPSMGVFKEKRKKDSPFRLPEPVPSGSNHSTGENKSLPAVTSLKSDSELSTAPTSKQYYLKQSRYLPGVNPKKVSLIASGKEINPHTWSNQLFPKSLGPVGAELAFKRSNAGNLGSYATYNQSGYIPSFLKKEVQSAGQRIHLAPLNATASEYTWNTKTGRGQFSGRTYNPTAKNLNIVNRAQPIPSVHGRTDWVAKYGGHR
Chain of UniProt Q9UK32 (whole entry, looked up): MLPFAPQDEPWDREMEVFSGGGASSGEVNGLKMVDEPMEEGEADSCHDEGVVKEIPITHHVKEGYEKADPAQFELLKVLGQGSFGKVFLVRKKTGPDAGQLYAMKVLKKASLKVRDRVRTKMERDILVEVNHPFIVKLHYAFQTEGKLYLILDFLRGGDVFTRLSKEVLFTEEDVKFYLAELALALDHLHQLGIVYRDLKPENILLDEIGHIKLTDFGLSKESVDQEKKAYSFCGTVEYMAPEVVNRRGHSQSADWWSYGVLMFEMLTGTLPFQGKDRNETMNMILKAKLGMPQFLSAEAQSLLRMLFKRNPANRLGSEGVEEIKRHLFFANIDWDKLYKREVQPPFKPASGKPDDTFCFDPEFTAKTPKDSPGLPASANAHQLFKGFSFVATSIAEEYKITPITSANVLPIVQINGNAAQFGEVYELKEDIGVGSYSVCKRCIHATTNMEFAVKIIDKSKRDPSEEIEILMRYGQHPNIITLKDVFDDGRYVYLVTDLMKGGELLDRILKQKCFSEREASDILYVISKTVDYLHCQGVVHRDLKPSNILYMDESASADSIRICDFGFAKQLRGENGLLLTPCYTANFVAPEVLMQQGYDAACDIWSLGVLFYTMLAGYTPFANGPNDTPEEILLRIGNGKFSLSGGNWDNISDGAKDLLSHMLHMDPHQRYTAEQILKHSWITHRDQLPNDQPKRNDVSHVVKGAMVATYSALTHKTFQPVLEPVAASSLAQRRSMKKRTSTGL
Chain of UniProt Q9H2G2 (whole entry, looked up): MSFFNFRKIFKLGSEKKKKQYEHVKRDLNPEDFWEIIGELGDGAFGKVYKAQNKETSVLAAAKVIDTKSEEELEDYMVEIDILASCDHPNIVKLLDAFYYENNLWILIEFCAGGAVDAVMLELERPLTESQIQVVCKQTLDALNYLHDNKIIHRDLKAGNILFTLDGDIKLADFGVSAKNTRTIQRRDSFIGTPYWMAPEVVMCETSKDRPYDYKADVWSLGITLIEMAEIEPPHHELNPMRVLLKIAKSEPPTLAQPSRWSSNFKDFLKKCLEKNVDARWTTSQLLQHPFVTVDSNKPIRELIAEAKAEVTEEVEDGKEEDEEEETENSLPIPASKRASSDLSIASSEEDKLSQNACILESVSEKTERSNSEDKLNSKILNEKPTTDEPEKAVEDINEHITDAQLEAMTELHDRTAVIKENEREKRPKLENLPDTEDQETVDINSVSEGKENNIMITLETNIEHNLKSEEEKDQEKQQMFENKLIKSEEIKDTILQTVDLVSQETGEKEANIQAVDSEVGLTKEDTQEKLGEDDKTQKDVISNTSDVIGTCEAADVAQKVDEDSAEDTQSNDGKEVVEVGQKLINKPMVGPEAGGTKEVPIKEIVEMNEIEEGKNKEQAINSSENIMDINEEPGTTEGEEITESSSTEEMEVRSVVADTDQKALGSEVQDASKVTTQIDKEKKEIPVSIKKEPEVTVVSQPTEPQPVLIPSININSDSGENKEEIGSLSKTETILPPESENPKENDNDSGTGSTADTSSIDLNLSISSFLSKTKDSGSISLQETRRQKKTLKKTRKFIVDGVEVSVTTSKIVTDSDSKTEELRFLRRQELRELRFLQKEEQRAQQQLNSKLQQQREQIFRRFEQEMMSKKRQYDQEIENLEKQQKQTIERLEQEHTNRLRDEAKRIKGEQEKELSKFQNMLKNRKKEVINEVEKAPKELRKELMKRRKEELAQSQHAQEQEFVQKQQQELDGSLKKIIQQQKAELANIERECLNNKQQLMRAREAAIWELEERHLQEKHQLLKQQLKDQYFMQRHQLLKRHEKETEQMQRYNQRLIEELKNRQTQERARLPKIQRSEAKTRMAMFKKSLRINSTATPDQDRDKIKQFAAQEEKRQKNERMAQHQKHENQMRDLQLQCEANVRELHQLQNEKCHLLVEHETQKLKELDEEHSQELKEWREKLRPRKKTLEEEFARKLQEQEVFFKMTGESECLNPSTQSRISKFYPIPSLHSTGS
Chain of UniProt P48729 (whole entry, looked up): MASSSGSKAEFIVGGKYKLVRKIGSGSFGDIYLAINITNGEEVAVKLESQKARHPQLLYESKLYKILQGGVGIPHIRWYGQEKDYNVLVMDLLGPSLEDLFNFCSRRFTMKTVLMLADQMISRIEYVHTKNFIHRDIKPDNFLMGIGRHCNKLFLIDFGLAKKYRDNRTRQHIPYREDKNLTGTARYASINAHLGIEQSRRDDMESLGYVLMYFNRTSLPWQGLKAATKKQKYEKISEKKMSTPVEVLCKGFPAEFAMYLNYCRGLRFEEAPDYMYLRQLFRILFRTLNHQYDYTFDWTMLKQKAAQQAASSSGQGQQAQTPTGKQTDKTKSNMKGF
Chain of UniProt Q9P0L2 (whole entry, looked up): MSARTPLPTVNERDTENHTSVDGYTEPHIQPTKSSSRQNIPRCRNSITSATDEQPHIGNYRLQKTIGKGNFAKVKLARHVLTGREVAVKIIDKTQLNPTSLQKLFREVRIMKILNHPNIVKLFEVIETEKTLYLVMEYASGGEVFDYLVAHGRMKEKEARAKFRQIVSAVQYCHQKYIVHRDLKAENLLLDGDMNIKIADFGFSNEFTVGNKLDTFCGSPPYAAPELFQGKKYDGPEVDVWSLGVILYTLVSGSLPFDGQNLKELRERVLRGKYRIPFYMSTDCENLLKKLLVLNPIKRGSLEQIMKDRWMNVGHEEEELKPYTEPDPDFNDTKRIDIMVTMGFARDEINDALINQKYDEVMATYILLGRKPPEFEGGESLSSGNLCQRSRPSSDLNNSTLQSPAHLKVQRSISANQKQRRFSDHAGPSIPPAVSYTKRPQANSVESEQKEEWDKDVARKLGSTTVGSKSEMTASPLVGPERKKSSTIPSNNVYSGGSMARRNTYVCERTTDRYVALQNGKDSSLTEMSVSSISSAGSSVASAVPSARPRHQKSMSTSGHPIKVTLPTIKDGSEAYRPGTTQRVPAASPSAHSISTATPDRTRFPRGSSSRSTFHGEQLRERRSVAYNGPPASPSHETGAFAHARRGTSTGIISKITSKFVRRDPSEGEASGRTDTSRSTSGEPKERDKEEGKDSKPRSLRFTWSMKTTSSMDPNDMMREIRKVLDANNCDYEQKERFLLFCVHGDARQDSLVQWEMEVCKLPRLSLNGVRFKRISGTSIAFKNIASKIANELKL
Chain of UniProt Q9Y6M4 (whole entry, looked up): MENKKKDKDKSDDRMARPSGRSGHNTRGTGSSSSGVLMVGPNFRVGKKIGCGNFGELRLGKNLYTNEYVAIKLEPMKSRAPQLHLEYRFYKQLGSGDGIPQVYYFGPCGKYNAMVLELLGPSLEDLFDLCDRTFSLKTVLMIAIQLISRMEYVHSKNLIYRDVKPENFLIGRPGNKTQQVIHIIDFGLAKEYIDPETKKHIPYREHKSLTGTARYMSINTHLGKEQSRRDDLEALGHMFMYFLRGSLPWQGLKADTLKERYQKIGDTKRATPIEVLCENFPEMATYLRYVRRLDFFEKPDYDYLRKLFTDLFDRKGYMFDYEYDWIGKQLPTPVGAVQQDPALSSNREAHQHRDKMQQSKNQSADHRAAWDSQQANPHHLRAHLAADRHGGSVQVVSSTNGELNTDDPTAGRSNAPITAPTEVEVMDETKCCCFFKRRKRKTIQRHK

Study 1
SMILES: C=CC(=O)N1CCC([C@@H]2CCNc3c(C(N)=O)c(-c4ccc(Oc5ccccc5)cc4)nn32)CC1
Action: inhibitor
Concentration: 1 µM
target	effect on	inhibition [%]
TXK (Homo sapiens, UniProt P42681)	enzyme activity	97
TAOK1 (Homo sapiens, UniProt Q7L7X3)	enzyme activity	5
EIF2AK1 (Homo sapiens, UniProt Q9BQI3)	enzyme activity	1
CDK19 (Homo sapiens, UniProt Q9BWU1)	–	23
CSNK1A1 (Homo sapiens, UniProt P48729)	enzyme activity	3
MAP3K12 (Homo sapiens, UniProt Q12852)	enzyme activity	0
RIOK2 (Homo sapiens, UniProt Q9BVS4)	enzyme activity	0
MAK (Homo sapiens, UniProt P20794)	enzyme activity	0

Study 2
Effect on: AlphaScreen signal
Method: AlphaScreen counter screen
Sample: His6 peptide without bromodomain
Concentration: 50 µM
Notes: assay interference check
Compound	inhibition [%]
O=C(O)Cc1cc(Cl)c2oc(-c3ccccc3)c(O)c(=O)c2c1	52.4
COc1ccc(-c2c(-c3ccccc3)oc3ncnc(N)c23)cc1	2.3
N#CC(=C(N)Sc1ccccc1N)C(C#N)=C(N)Sc1ccccc1N	10.4
O=C1c2ccccc2-c2nc3nnnn3nc21	-1.7
COc1cc(Nc2ncc(F)c(Nc3ccc4c(n3)NC(=O)C(C)(C)O4)n2)cc(OC)c1OC	16.5
CC1(C)CNc2cc(NC(=O)c3cccnc3NCc3ccncc3)ccc21	53.9

Study 3
Target: Calcium/calmodulin-dependent protein kinase kinase 2 (CAMKK2, Homo sapiens, UniProt Q96RR4)
Chain of UniProt Q96RR4 (whole entry, looked up): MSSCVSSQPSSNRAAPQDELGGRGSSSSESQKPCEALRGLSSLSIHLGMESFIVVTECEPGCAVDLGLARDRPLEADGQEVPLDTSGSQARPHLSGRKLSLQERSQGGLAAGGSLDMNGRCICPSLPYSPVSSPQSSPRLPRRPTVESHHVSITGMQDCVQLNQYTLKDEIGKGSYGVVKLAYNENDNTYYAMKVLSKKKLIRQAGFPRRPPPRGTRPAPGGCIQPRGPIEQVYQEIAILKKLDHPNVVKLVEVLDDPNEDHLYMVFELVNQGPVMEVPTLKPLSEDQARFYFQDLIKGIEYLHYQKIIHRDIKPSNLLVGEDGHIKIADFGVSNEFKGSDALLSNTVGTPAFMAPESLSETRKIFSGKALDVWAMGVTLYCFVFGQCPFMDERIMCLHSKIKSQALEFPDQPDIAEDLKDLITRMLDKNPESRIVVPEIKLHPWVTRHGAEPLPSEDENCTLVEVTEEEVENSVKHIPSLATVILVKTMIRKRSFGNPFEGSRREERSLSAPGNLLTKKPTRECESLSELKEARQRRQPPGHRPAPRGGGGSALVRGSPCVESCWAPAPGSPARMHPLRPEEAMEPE
Effect on: enzyme activity
Action: inhibitor
Concentration: 0.5 µM
Reference: control
SMILES	remaining activity
Cc1ccc(NC(=O)c2ccc(CN3CCN(C)CC3)cc2)cc1Nc1nc(-c2cccnc2)cs1	101%
Cc1cccc(-c2[nH]c(C(C)(C)C)nc2-c2ccc3c(c2)OCO3)n1	96%
Nc1[nH]nc2nc3ccccc3nc12	98.8%
COc1cc2nccc(Oc3ccc(NC(=S)NC(=O)c4ccccc4C)cc3)c2cc1OC	75%
Cn1sc(=O)n(Cc2ccccc2)c1=O	95.2%
CO[C@H]1C[C@@H]2CC[C@@H](C)[C@@](O)(O2)C(=O)C(=O)N2CCCC[C@H]2C(=O)O[C@H]([C@H](C)C[C@@H]2CC[C@@H](O)[C@H](OC)C2)CC(=O)[C@H](C)/C=C(\C)[C@@H](O)[C@@H](OC)C(=O)[C@H](C)C[C@H](C)/C=C/C=C/C=C/1C	115%
Cc1nc(-c2ccccc2)c(-c2ccncc2)o1	105%
OCC(O)CCON=C1C(c2c(O)[nH]c3ccccc23)=Nc2ccccc21 (centres unmarked)	26%
Cn1c2ccccc2c2c3c(c4c5ccccc5n(CCC#N)c4c21)CNC3=O	3.88%
CN(C)c1ccc(C=C2C(=O)Nc3ccccc32)cc1	100%
COc1ccc(OC)c2c(=S)c3ccccc3[nH]c12	108%
O=C1NC(=O)C(c2cn(CCCO)c3ncccc23)=C1c1cnccn1	115%
Nc1ncnc2n[nH]c(Nc3ccc(F)cc3)c12	83.6%
O=C(Nc1cccc(Nc2cc(Nc3cccc(C(F)(F)F)c3)ncn2)c1)C1CC1	98.5%
O=S(=O)(c1cccc2cnccc12)N1CCCNCC1	95.9%

Study 4
Structure (SMILES): CCc1ccccc1C(=O)Nc1n[nH]c2c(C)c(F)c(C3C(C#N)=C(C)N(C)C(C)=C3C#N)cc12
Method: competition with immobilised ligand
Concentration: 1 µM
target	effect on	remaining binding
MARK1 (Homo sapiens, UniProt Q9P0L2)	cell-free assay	36%
CSNK1G3 (Homo sapiens, UniProt Q9Y6M4)	cell-free assay	100%
Ribosomal protein S6 kinase alpha-6, N-terminal kinase domain (RPS6KA6, Homo sapiens, UniProt Q9UK32)	cell-free assay	2.9%
SLK (Homo sapiens, UniProt Q9H2G2)	cell-free assay	100%
MYLK (Homo sapiens, UniProt Q15746)	binding	55%
CAMK1G (Homo sapiens, UniProt Q96NX5)	cell-free assay	90%
MUSK (Homo sapiens, UniProt O15146)	cell-free assay	83%
ALK (Homo sapiens, UniProt Q9UM73, L1196M)	cell-free assay	83%
FGR (Homo sapiens, UniProt P09769)	cell-free assay	51%

Repeated from above (study 2):
Compound	inhibition [%]
O=C(O)Cc1cc(Cl)c2oc(-c3ccccc3)c(O)c(=O)c2c1	52.4
COc1ccc(-c2c(-c3ccccc3)oc3ncnc(N)c23)cc1	2.3
N#CC(=C(N)Sc1ccccc1N)C(C#N)=C(N)Sc1ccccc1N	10.4
O=C1c2ccccc2-c2nc3nnnn3nc21	-1.7
COc1cc(Nc2ncc(F)c(Nc3ccc4c(n3)NC(=O)C(C)(C)O4)n2)cc(OC)c1OC	16.5
